# Measurements gathered from unrelated publications.
# Each line is one published result; not all experiments were run side by side. Numbers after ± are the reported error.
# inhA: Enoyl-[acyl-carrier-protein] reductase [NADH] (inhA, Mycobacterium tuberculosis, UniProt P9WGR1)
SMILES,tested on,assay,test system,setting,scale,endpoint,value
[Ca+2],Halyomorpha halys,"outward current, inhibitor, electrophysiology",,"concentration not given, D721A D731A in Nan",,inhibition,18.5%
CCOC(=O)C1=C[C@@H](OC(CC)CC)[C@H](NC(C)=O)[C@@H](N)C1,Influenza A virus,viral replication,A/TianJin-JinNan/15/2009 (H1N1),,,EC50,> 100000 nM
NNC(=O)c1ccncc1,Mycobacterium tuberculosis,,H37Rv inhA M103T mutant,concentration not given,baseline: wild type H37Rv,MIC fold change,1 fold
NC(=O)c1ncn([C@@H]2O[C@H](CO)[C@@H](O)[C@H]2O)n1,Influenza A virus H1N1 A/Tianjin Jinnan/15/2009,viral replication,MDCK,,,IC50,3.18 mg/L
CCCC1(N)C2CC3CC(C2)CC1C3 (stereo not drawn),"Matrix protein 2 (Influenza A virus, UniProt C3W5Z0, N31S)",blocker,,concentration not given,,inward proton current,inhibited
CCC(CC)[C@H](NC(C)=O)[C@@H]1[C@H](O)[C@@H](C(=O)O)C[C@H]1N=C(N)N,"neuraminidase (Influenza B virus, UniProt C0LT34)",,,,,IC50,1 ± 0.3 nM
CS(=O)(=O)Nc1ncn(-c2cc(F)c(COc3ccc(OS(=O)(=O)F)cc3)c(F)c2)n1,Mycobacterium tuberculosis,,Pks13 wild-type overexpression,,,MIC90,0.29 µM
CCOC(=O)C1=C[C@@H](OC(CC)CC)[C@H](NC(C)=O)[C@@H](N)C1,Influenza A virus H1N1 A/Tianjin Jinnan/15/2009,viral replication,"MDCK, resistant to compound",,,IC50,50.7 mg/L
Cc1cc2ncn(Cc3ccc(Cl)c(Cl)c3)c2cc1C,inhA,enzyme activity,,,,binding efficiency index,16
Nc1cccc(F)c1C(=O)O,Mycobacterium bovis BCG,,compound-resistant mutants,concentration not given,baseline: wild type,MIC fold change,15 fold
CCc1oc2ccccc2c1/C=C/C(=O)N(CCOC)Cc1nc2ccccc2c(=O)[nH]1,inhA,enzyme activity,,,,binding efficiency index,11
O=C1c2c(O)c(=O)ccn2N([C@@H]2c3ccccc3SCc3c2ccc(F)c3F)[C@@H]2COCCN12,Influenza A virus,viral replication,A(H1N1)pdm09 rg-A/California/04/2009,mean,,EC50,0.66 ± 0.1 nM
CO[C@H]1/C=C/O[C@@]2(C)Oc3c(C)c(O)c4c(O)c(c(/C=N/N5CCN(C)CC5)c(O)c4c3C2=O)NC(=O)/C(C)=C\C=C\[C@H](C)[C@H](O)[C@@H](C)[C@@H](O)[C@@H](C)[C@H](OC(C)=O)[C@@H]1C,Mycobacterium tuberculosis,,H37Rv inhA M103I mutant,concentration not given,baseline: wild type H37Rv,MIC fold change,1 fold
CC(=O)N[C@H]1[C@H]([C@H](O)[C@H](O)CO)OC(C(=O)O)=C[C@@H]1O,Influenza A virus,viral replication,A/Paris/1170/2007 (H1N1),72 h,,EC50,8000 nM
NCCCNCCCCN(CCCN)/[N+]([O-])=N/O,"Sensor histidine kinase PdtaS (pdtaS, Mycobacterium tuberculosis, UniProt P9WGL4, C57A)",,,,,dimerization affinity,no effect

# Excerpt of the above:
SMILES,tested on,assay,test system,setting,scale,endpoint,value
CCCC1(N)C2CC3CC(C2)CC1C3 (stereo not drawn),"Matrix protein 2 (Influenza A virus, UniProt C3W5Z0, N31S)",blocker,,concentration not given,,inward proton current,inhibited
